Published values collected from several papers.
Numbered parts are unrelated; each lists some results of a single study.

Sample 1
Target: Histone acetyltransferase KAT6A, winged helix 2, GST fusion (KAT6A, Homo sapiens, UniProt Q92794, residues 85-181)
Method: protein binding microarray
Molecule type: double-stranded DNA, one strand shown
Medium: in vitro
Concentration: not given
Notes: 8-mer, flanks averaged, mean of 2 arrays, mostly near background
Reference: not given
Direction: higher = stronger binding
Target sequence (chain): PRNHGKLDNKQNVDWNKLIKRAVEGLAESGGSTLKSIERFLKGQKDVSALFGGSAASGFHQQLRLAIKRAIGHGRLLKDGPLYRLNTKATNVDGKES
Strand | E-score
GCCATGCC | 0.106
AATCAGTG | 0.0952
ATACTCAA | 0.173
ATTGCCCG | 0.0449
GGCTTGTA | -0.107
ACGATTCG | 0.0137
CTCAAGGA | -0.0229
AGACCAGA | -0.105
CGTATCGC | 0.0498
CGTGCCAA | -0.0272
CCGCCGGA | 0.119
GCACTCGA | 0.0575
CGTACATA | -0.121
CCCTCTTC | -0.166
AACGAGCG | -0.0165
CCGTGCTC | 0.117
CTGCAGCC | 0.134
ACCCTAGT | -0.106
TATTCAAA | 0.233
CCCAGCTC | -0.0595
AAGAGATG | -0.145
AACAACCA | 0.192
GACCCATC | -0.0746
CGTTAGTA | 0.112
ACGCTAGA | -0.0979

Sample 2
Target: Sox, HMG box (Pigoraptor chileana)
Method: Spec-seq
Molecule type: double-stranded DNA, one strand shown
Medium: in vitro
Concentration: not given
Notes: whole probe, mean of replicates
Reference: not given
Direction: lower = stronger binding
Shared flanks, not repeated: GAGTCGTCTCGTCAGCAC … CCGTAGAGCACTCAGGTC
Residues (chain): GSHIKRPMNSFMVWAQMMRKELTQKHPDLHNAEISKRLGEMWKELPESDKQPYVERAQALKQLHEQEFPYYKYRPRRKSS
Strand | relative binding energy
ACCCGTT | -0.111 ln ratio
TTTCGTT | 0.904 ln ratio
CATTCTG | -0.0944 ln ratio
CATCTAT | 0.167 ln ratio
GCAGGTT | 1.24 ln ratio
TAGGGTT | 0.727 ln ratio
CATTGCT | -0.0166 ln ratio
GACCGTT | 1.06 ln ratio
ATCGGTT | 0.442 ln ratio
CCCGGTT | 0.847 ln ratio
ATGGGTT | 0.351 ln ratio
CATGTCA | 0.755 ln ratio
TACGGTT | 0.615 ln ratio
CATGTTG | 0.546 ln ratio
TAAGGTT | 0.73 ln ratio
CATTTCC | 0.816 ln ratio
CCTGGTT | 0.64 ln ratio
CATTTAT | -0.513 ln ratio
GGATGTT | 0.599 ln ratio

Sample 3
Target: RNA binding protein fox-1 homolog 2, RRM domain, GST-SBP tag (RBFOX2, Homo sapiens, UniProt O43251-10, residues 100-194)
Method: RNA Bind-n-Seq
Molecule type: RNA
Medium: in vitro
Concentration: 365 nM
Notes: natural RNA segment, single round, ends assumed
Reference: no-protein control
Direction: higher = stronger binding
Shared flanks, not repeated: GGGAGUUCUACAGUCCGACGAUC … UGGAAUUCUCGGGUGCCAA
Construct (chain): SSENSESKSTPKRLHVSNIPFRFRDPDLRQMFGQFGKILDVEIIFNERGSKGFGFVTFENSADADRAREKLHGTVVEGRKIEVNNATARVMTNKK
Strand | RBNS enrichment (R)
CUCCAUUAAUACUAAUAAUUAUAUACUUUGCUGAGGAUCAAAACAGCCAAGAAAGGAAUUACUGCUAAAGCAUCUAAGAUUCUCCUGAACUGUAAAAUCAACAGGAAAUG | 0.303
AGUCUGCUGCAAACCAGUCUGGCCAGCACAGCAACCGCCCAUUGAGGACUUUCUUAAAGCUACUGGGCUGGAGGUCCUUUCCCACUCCUUUGUCCUUUGCUUGGCCUAAG | 0.317
CAGAUCUGGAAGGGCCUCCCUCUCUGCCAGUGUUUGGGUGGGUGUCAUGGGUGUCCCCACCCACUCCUCAGUGUUUGUGGAGUCGAGGAGCCAACCCCAGCCUCCUGCCA | 0.425
AGGAAAUUCUAGUACAAAGGGAAAAUAGCCAUAAUGUGGUAAUGUAAAAAAUGCUAUCUCCCUAUUAUUUCUGUUUUAUAUCAUUGUCAAUAAAAGGAAUAUCAUGGUCA | 1.27
ACAGUUCAGGGGAUCUCAGCUAACUCUAGUGGAAGUGAUACAAAGCAAGCUUAAAUUACAGAAGCAACUAUCCUGUCGAAAUGUCGUAAUACAGUCCAGCUGAAAGUAGG | 0.379
GUGCAGAGUUUUACAGACACCCGGUCAGCCCGGCUGGAGCCCGCCCUCCCCUCCCCUAGCAGCCAGGUCACUGCCUGUGGCUGCAGCCGUGGCCCGUGGUGCAGCCGUGG | 0.428
UUGACUCUGGUUCACAAUUUCGUACGUAGCUGGUUUGACGUAGAACUUUGUACUUCCCUUGCCGAAGUGAAUUGUUGAAGGCUGCAACCCACCCACCUUGAGUGUAGCAG | 0.736
CACAUUGCCUUUGUUAUCUUUUUUUCGGAUUGAGCUCAUAACAGCCUGUGGCCCCUCACAUUCUCCAGGACCUGCCCUGCUAUGGGCCACUAACUGCUUGCUGGGGACAG | 1.23
GAUGUGACAUUUGGGAUUCCCCAUCACUUGUCAUGCCCUCAGCACCCAGCUUGUGCCAUUGGGCAUUGAUGGCAUUGAACUAGAGCGAGUGCCUGCCUCGGCUGUGGCAC | 0.426
CGACUGAUAGUGUGUUCUUUCCGGGAUCACAAACAUUAACAAAAAAGUUAACUUAUGUGACUUGGCAGUUAUUCUAUACCAUUUCCUGUCCAUUAAAAUUUUUAAAGGAA | 0.266
ACUCAGAGGGGGUUGGGUUUGGGGACAUAAAGCCUCUGACUCAAACUCCUCCCUUUUAUCUUCUAGCCACAGUUCUAAGACCCAAAGUGGGGGGUGGACACAGAAGUCCC | 0.247
UUUUUUUCCCUUAAUGUUGAAUUAAAAUACUUGCUCAUAGUUGAUUUACCAUUCCUACAAAAGAGGCAGAAACUUUGAGCAAUCUAGGUUUUUUUUUUUUUUAAGUUUUU | 1.03

Sample 4
Target: RING finger protein unkempt homolog, zinc fingers 1-6, GST-SBP tag (UNK, Homo sapiens, UniProt Q9C0B0, residues 30-357)
Method: RNA Bind-n-Seq
Molecule type: RNA
Medium: in vitro
Concentration: not given
Notes: RNA with constant flanks, human and mouse sites, ends assumed
Reference: input RNA pool
Direction: higher = stronger binding
Shared flanks, not repeated: GGGAGUUCUACAGUCCGACGAUC … CAACAGAGGAUUGAGCAUCA
Construct (chain): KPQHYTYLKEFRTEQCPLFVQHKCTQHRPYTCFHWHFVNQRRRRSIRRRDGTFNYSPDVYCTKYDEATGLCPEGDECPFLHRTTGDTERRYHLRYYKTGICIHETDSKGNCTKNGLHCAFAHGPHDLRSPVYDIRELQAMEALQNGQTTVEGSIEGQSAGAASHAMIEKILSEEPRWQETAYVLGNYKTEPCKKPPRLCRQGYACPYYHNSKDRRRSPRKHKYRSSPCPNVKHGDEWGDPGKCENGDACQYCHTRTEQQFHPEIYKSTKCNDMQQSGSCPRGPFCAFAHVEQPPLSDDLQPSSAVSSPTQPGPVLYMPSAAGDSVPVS
Strand | bound/input enrichment [ratio]
CCGGGUCAGCUGAGGUGGACGGCCUCGGCAAGCGGGUUUUUUUCCCCUAGAGUUGUAUAUAUAGAGCAUCCUGGACUCCACAAUGAACGGACAGUUGGACCUAAGUGGGAAGCUGAUUAU | 1.38
UUAUUACUUCAAGCUGUCAAUUCUCACUGUUUCCCAGCAUUCCUAGCUAUUCCACCUGCACAGUUCAAGCUGGUUUUGGAUUCUAUUAUUUGGGCUUUUAAACAUACUAUGAGGAAUGUU | 0.38
AAUGUUGUAACUCGGAGGUUUAGCAAAGCUGACACAAUAGAUACGAUUGAGAAGGAAAUAAGAAAAAUCUUCAAUAUUCCAGAUGAGAAGGAGGCCAGACUGUGGAACAAGUAUAUGAGC | 0.613
GGGCACUGAUCUUCGAUCGCGAAGAUGGCUGCUGGCUGCCUGCUGGCCUUGACUCUGACACUUUUCCAAUCUGGGCUGAUCGGCCCCUCGAGCGAGGAGCCCUUCCCUUCGCCCGUCACU | 0.123
AGUUUAAGCCUGACACACAGGCUUUGGUCCUCACUGAGCUGUCUCCAAGACUGGAACUACUUAGUGACUCGGCAAAUUUUCUGCCCCCCACCCCUCAUCAAAGCUGCUAGUUCAGAUGUU | 4.06
GUGAACAUAACCAAAGGCAGAGGAGACAGAUCCUCUCUGAAAGUGGUGAAGGCGGCAGCCCAGGUCUUGAAUACAUUAUGGCAGUACCGGGACCUCCGGAGCAUUUACAAAAAGGAUGGG | 0.387
GCCUCUCGCUGGGGUCUUACGCUACAGACUUAUGUGCAGCUCACCAUGCUGGACAGGCAUACUCGUCCUCAGGUGUCAUCUGUACGGUUGAUGGAGAGGUCGAUUCACAGCGCAAGAUAC | 0.0979
GAUAUCUGUCGUAGAAACCUCGACAUUGAGCGCCCAACCUACACUAACCUAAACAGGUUGAUAGGUCAAAUUGUGUCUUCCAUCACUGCUUCCCUCAGAUUUGAUGGGGCCCUGAAUGUU | 0.213
AGGUUAACUCUGAGAGCCAUCAAACUGUGGGCCAAACGGCACAACAUCUAUUCCAAUAUAUUAGGUUUCCUCGGUGGUGUUUCCUGGGCUAUGCUAGUAGCAAGAACUUGCCAGCUUUAU | 0.465
CUGUCAAAACGACGGAGUCAGUUAAAACAAGCAGUUGCAAAAAUGGUUCAGCAGUGCUGUACUUACGUGGAGGAGAUCACAGACCUGCCAGUCAAGCUGCGAUUGAUUGAUACUCUGCGG | 0.117
CCCGCCCGCCCGCCUCCCUGCCGGCCCAUCCACACCCUGCGUCCACACCACUUCCAACCUCAUAGGAGCCGAUGUAUUUAUUUUCCUUGAGUUUUUAUUUAUGCUGUAACCUGUAUCAAG | 0.266

Sample 5
Target: Sal-like protein 4, full length isoform A (SALL4, Homo sapiens, UniProt Q9UJQ4, residues 1-1053)
Chain of UniProt Q9UJQ4 (whole entry, looked up): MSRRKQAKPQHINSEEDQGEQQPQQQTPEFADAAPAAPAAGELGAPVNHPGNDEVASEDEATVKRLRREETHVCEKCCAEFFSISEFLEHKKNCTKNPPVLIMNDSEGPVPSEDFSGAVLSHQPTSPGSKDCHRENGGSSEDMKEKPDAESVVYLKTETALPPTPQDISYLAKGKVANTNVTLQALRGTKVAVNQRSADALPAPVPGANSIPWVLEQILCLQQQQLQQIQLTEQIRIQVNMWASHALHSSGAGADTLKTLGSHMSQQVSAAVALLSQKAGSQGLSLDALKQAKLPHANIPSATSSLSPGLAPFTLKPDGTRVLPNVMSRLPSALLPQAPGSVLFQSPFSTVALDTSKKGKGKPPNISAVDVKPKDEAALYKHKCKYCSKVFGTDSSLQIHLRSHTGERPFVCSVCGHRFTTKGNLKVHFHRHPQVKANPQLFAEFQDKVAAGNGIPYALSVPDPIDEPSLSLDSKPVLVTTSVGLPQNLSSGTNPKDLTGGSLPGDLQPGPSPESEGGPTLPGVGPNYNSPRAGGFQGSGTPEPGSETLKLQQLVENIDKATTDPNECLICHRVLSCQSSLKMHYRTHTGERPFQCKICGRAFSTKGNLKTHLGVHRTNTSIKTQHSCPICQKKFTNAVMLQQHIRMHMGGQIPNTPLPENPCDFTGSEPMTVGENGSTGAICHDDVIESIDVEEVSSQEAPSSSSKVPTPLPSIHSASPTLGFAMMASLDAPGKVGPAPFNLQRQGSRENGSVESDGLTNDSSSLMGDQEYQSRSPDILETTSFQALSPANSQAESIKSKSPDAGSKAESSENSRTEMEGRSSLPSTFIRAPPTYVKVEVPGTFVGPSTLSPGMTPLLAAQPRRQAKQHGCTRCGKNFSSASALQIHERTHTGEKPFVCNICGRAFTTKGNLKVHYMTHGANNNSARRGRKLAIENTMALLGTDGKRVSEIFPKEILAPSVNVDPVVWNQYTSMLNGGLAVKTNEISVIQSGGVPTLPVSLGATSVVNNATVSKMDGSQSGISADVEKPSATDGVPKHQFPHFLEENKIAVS
Method: universal PBM
Molecule type: double-stranded DNA, one strand shown
Medium: in vitro
Concentration: 600 nM
Notes: 8-mer, flanks averaged, mean of replicates
Direction: higher = stronger binding
Strand | E-score
GCTTAGCA | -0.054
CTGCTCAA | -0.102
CCGTTCTC | -0.0513
CACCCATG | -0.024
AAATATTT | 0.427
AAAAACCG | -0.0203
TCCCCCCA | -0.205
ACTCGTCA | -0.0111
AGATTACG | 0.0952
CTTCAAGA | 0.248
CCCGTACA | -0.179
CCGGCTTC | -0.363
TGTGTCAA | 0.234
AGTTCCTC | -0.129
ACGTTTAA | 0.28
AGGTTACA | 0.109

Some of these lines once more (sample 5):
Strand | E-score
TCCCCCCA | -0.205
TGTGTCAA | 0.234
AGGTTACA | 0.109
AGATTACG | 0.0952
CTGCTCAA | -0.102
CCGGCTTC | -0.363
CTTCAAGA | 0.248
AAATATTT | 0.427
CACCCATG | -0.024
GCTTAGCA | -0.054
CCCGTACA | -0.179
ACGTTTAA | 0.28
CCGTTCTC | -0.0513
